Published values from different studies.
± marks the error that the study gave.
Organism: Influenza A virus

SMILES | assay | test system | setting | scale | quantity | value
OC[C@H]1O[C@@H](OCCc2ccccc2)[C@H](O)[C@@H](O)[C@@H]1O | viral replication, inhibitor | H1N1 WSN | 10 µM | – | inhibition | 41%
CC(=O)N[C@H]1[C@H]([C@H](O)[C@H](O)CO)OC(C(=O)O)=C(C/C=C/c2ccc(C)cc2)[C@@H]1O | viral replication | A/Paris/0497/2007 (H1N1) | 72 h | – | EC50 | 80 µM
C[C@@H](CO)C(=O)OCCc1ccc(O)cc1 | viral replication, inhibitor | H1N1 WSN | 10 µM | – | inhibition | 39.5%
O=C(Nc1ccccc1SSc1ccccc1NC(=O)c1ccccc1)c1ccccc1 | – | A/NWS/33 (H1N1), mouse, bronchoalveolar lavage fluid | oral, 1 mg/mouse/day, day 14 | baseline: untreated infected control | neutralizing antibody titre | 2.4 fold
CC1(C)CCC2(C(=O)NCc3ccccc3)CCC3(C)C(=CCC4C5(C)CCC(OC(=O)C6CC(OC(=O)c7cccc(O)c7O)CN6C(=O)c6cccc(O)c6O)C(C)(C)C5CCC43C)C2C1 (stereo not drawn) | viral replication | MDCK, A/WSN/1933 (H1N1) | 48 h | – | EC50 | 0.88 ± 0.18 µM
C[C@H](O)CC(=O)OCCc1ccc(O)cc1 | viral replication, inhibitor | H1N1 WSN | 10 µM | – | inhibition | 58.1%
CC1(C)CCC2(C(=O)NCc3ccccc3)CCC3(C)C(=CCC4C5(C)CCC(OC(=O)C6CC(OC(=O)Cc7ccc(O)c(O)c7)CN6C(=O)Cc6ccc(O)c(O)c6)C(C)(C)C5CCC43C)C2C1 (stereo not drawn) | viral replication | MDCK, A/WSN/1933 (H1N1) | 48 h | – | EC50 | > 20 µM
COc1ccc(CCO)cc1O | viral replication, inhibitor | H1N1 WSN | 10 µM | – | inhibition | 6.77%
CC1(C)CCC2(C(=O)NCc3ccccc3)CCC3(C)C(=CCC4C5(C)CCC(OC(=O)C6CC(OC(=O)c7ccc(O)c(O)c7)CN6C(=O)C6CC(O)C(O)C(O)C6)C(C)(C)C5CCC43C)C2C1 (stereo not drawn) | viral replication | MDCK, A/WSN/1933 (H1N1) | 48 h | – | EC50 | 0.92 ± 0.36 µM
C=CCC1=C(C(=O)O)O[C@@H]([C@H](O)[C@H](O)CO)[C@H](NC(C)=O)[C@H]1O | viral replication | A/Paris/908/97 (H3N2) | 72 h | – | EC50 | > 5000 µM
COc1ccc(C(=O)N2CC(OC(=O)c3ccc(F)c(F)c3)CC2C(=O)OC2CCC3(C)C(CCC4(C)C3CC=C3C5CC(C)(C)CCC5(C(=O)NCc5ccccc5)CCC34C)C2(C)C)cc1OC (stereo not drawn) | – | MDCK, A/WSN/1933 (H1N1) | – | baseline: CC50 over EC50 | selectivity index | > 27.6
CN(C)CC1CN(S(=O)(F)=Nc2cc(Cl)c(C(=O)N3CCO[C@@H](c4ccccc4)C3)c(Cl)c2)C1 (stereo partly drawn) | viral replication | – | 72 h | – | EC50 | 0.02 µM

Excerpt of the above:
SMILES | assay | test system | setting | scale | quantity | value
C[C@H](O)CC(=O)OCCc1ccc(O)cc1 | viral replication, inhibitor | H1N1 WSN | 10 µM | – | inhibition | 58.1%
